Assay results of several laboratories.
Each numbered part is a random draw from the data of one study; scales do not carry over between parts.

Block 1
Target: Sal-like protein 4, full length isoform A (SALL4, Homo sapiens, UniProt Q9UJQ4, residues 1-1053)
Chain of UniProt Q9UJQ4 (whole entry, looked up): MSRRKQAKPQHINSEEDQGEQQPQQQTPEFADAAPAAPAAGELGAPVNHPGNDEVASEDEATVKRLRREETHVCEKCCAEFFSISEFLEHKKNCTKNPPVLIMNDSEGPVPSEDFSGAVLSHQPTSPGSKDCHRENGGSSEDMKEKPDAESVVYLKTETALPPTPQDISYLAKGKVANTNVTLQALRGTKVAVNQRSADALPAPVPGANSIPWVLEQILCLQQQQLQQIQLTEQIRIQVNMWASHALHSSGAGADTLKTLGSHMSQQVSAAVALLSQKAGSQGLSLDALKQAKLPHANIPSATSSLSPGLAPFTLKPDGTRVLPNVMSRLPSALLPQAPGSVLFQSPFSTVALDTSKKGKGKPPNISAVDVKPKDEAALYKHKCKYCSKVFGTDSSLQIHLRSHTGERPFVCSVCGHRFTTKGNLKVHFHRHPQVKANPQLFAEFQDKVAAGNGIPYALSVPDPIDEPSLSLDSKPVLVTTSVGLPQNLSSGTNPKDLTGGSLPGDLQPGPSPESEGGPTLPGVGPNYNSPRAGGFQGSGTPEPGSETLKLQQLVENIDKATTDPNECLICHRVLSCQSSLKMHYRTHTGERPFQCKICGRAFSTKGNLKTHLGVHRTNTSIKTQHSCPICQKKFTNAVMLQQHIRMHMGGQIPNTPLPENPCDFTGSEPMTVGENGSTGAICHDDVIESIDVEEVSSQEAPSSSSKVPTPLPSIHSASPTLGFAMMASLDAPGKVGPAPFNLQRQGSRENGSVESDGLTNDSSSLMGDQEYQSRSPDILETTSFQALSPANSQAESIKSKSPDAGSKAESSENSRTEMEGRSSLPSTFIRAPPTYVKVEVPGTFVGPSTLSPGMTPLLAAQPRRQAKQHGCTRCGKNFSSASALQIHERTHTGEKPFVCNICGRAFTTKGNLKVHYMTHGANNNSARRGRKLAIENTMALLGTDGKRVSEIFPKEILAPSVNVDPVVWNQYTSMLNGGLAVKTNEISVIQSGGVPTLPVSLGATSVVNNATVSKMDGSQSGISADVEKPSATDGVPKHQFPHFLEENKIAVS
Technique: universal PBM
Form: double-stranded DNA, one strand shown
Sample: in vitro
Concentration: 600 nM
Setting: 8-mer, flanks averaged, mean of replicates
Reading: higher = stronger binding
| Strand | E-score |
| --- | --- |
| AGTTGTGC | -0.12 |
| CGAGGCAC | -0.251 |
| CAACAACG | 0.00385 |
| AGGATATG | 0.159 |

Block 2
Target: Interferon regulatory factor 3, full length, phosphomimetic (IRF3, Homo sapiens, UniProt Q14653, residues 1-427, S386D/S396D/S398D/S402D/T404D/S405D)
Technique: protein-binding microarray
Form: double-stranded DNA, one strand shown
Sample: in vitro
Concentration: 2540 nM top
Setting: 60-bp whole probe
Together with: salmon DNA 0.4 mg/ml
Relative to: random background probes
Reading: higher = stronger binding
Constant ends, left off below: GCCTAGCAC … GTCTTGATTCGCTTGACGCTGCTG
Target sequence (chain): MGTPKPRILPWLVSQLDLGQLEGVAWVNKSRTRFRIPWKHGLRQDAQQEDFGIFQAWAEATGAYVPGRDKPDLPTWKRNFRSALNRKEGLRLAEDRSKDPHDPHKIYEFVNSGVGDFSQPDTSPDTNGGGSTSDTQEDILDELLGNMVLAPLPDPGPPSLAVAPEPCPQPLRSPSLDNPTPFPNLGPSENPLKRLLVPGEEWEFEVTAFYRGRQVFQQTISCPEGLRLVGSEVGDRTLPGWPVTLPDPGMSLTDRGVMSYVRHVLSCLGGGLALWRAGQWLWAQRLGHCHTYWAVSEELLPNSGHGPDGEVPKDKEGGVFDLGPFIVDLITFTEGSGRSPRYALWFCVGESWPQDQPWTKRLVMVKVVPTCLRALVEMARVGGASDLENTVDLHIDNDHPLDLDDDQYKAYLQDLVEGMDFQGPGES
| Strand | fitted relative affinity [z-score] |
| --- | --- |
| GTAGATCTCAGTATCGATTAGTGCTAG | 1.02 |
| TTAGAACCGAGTATCGATTAGTGCTAG | 0.365 |
| GACGAACTGGGGTCTCGAGACGTGCTA | -0.58 |
| TCAAGTCCCCTCTTCTGACTGTGCTAG | 0.597 |
| GACGCACTGGGTATCGGGACGTGCTAG | -0.147 |
| TTAGGTTTCCAACTGCTTTAGTGCTAG | 4.58 |

Block 3
Target: Histone acetyltransferase KAT6A, both winged helices, GST fusion (KAT6A, Homo sapiens, UniProt Q92794, residues 1-181)
Technique: protein binding microarray
Form: double-stranded DNA, one strand shown
Sample: in vitro
Concentration: not given
Setting: 8-mer, flanks averaged, mean of 2 arrays, mostly near background
Relative to: not given
Reading: higher = stronger binding
Construct (chain): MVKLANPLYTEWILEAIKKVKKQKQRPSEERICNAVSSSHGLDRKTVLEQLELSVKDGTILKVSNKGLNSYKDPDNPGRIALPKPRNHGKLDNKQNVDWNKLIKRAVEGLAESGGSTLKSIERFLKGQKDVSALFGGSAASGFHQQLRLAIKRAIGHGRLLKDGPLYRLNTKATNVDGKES
| Strand | E-score |
| --- | --- |
| CTTGCGAA | 0.11 |
| CGAAAACC | 0.0998 |
| TAGACTCA | -0.0788 |
| AAGGCTTC | -0.124 |

Further values, each from its own experiment
| Substance | target | assay | test system | setting | how to read | endpoint | result |
| --- | --- | --- | --- | --- | --- | --- | --- |
| PhoQ, residues 284 288 289 292 302 303 SSTLSG | PhoP, residues 12 14 15 18 19 AGCRL (Escherichia coli, UniProt P23836) | Sort-seq, measured: YFP reporter | E. coli | PhoQ-PhoP variant library, together with: 10 µM Mg2+ | relative to: high Mg2+ state, higher = stronger signaling | fold induction | 5.63 |

A few entries again (block 3):
| Strand | E-score |
| --- | --- |
| CGAAAACC | 0.0998 |
